Measured values collected from several papers.
Protocols differ between the studies behind these lines. Several values in a cell are separate wells, animals, samples, runs or records. Numbers after ± are the reported error.
B1: UGT1A4 (Homo sapiens, UniProt P22310); chain GKVLVVPTDGSPWLSMREALRELHARGHQAVVLTPEVNMHIKEEKFFTLTAYAVPWTQKEFDRVTLGYTQGFFETEHLLKRYSRSMAIMNNVSLALHRCCVELLHNEALIRHLNATSFDVVLTDPVNLCGAVLAKYLSIPAVFFWRYIPCDLDFKGTQCPNPSSYIPKLLTTNSDHMTFLQRVKNMLYPLALSYICHTFSAPYASLASELFQREVSVVDLVSYASVWLFRGDFVMDYPRPIMPNMVFIGGINCANGKPLSQEFEAYINASGEHGIVVFSLGSMVSEIPEKKAMAIADALGKIPQTVLWRYTGTRPSNLANNTILVKWLPQNDLLGHPMTRAFITHAGSHGVYESICNGVPMVMMPLFGDQMDNAKRMETKGAGVTLNVLEMTSEDLENALKAVINDKSYKENIMRLSSLHKDRPVEPLDLAVFWVEFVMRHKGAPHLRPAAHDLTWYQYHSLDVIGFLLAVVLTVAFITFKCCAYGYRKCLGKKGRVKKAHKSKTH
UniProt O15438, sequence (whole entry, looked up): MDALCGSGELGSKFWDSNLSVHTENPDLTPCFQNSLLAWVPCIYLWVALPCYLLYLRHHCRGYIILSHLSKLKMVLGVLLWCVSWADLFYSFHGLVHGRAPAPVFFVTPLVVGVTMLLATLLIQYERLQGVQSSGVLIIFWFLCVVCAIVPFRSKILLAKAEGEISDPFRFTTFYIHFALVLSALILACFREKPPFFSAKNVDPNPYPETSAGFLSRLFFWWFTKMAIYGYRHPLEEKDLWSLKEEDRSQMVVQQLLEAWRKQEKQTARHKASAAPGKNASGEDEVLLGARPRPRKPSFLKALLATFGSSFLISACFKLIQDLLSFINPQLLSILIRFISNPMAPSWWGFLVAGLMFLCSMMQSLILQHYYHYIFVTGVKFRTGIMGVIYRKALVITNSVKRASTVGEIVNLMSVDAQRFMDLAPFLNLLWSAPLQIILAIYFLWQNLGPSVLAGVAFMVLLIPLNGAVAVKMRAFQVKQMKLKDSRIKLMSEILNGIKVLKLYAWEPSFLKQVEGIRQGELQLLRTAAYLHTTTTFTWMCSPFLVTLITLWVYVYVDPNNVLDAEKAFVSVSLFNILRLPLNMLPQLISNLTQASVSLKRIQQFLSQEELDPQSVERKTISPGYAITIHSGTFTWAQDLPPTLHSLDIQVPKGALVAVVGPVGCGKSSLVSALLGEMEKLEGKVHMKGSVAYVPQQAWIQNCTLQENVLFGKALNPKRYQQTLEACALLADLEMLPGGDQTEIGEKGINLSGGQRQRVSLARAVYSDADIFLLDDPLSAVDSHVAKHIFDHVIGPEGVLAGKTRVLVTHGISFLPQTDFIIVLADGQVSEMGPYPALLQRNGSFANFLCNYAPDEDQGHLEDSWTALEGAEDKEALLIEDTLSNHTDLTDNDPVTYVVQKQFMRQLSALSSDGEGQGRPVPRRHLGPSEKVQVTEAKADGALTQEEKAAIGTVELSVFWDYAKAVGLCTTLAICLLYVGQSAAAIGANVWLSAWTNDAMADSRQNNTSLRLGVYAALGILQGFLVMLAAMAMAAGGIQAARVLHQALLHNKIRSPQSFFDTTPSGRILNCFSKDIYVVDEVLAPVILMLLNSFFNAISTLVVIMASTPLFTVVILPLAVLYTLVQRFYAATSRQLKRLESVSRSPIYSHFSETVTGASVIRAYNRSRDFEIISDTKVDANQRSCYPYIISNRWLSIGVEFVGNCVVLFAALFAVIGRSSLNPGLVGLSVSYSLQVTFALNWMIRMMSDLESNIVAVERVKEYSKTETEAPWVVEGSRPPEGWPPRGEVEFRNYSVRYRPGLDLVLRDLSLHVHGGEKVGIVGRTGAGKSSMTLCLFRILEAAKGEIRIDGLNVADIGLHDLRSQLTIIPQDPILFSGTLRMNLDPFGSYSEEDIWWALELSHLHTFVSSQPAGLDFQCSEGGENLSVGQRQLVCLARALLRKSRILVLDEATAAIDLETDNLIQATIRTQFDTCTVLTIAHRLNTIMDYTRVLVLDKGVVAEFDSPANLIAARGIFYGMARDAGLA
UniProt Q92887, sequence (whole entry, looked up): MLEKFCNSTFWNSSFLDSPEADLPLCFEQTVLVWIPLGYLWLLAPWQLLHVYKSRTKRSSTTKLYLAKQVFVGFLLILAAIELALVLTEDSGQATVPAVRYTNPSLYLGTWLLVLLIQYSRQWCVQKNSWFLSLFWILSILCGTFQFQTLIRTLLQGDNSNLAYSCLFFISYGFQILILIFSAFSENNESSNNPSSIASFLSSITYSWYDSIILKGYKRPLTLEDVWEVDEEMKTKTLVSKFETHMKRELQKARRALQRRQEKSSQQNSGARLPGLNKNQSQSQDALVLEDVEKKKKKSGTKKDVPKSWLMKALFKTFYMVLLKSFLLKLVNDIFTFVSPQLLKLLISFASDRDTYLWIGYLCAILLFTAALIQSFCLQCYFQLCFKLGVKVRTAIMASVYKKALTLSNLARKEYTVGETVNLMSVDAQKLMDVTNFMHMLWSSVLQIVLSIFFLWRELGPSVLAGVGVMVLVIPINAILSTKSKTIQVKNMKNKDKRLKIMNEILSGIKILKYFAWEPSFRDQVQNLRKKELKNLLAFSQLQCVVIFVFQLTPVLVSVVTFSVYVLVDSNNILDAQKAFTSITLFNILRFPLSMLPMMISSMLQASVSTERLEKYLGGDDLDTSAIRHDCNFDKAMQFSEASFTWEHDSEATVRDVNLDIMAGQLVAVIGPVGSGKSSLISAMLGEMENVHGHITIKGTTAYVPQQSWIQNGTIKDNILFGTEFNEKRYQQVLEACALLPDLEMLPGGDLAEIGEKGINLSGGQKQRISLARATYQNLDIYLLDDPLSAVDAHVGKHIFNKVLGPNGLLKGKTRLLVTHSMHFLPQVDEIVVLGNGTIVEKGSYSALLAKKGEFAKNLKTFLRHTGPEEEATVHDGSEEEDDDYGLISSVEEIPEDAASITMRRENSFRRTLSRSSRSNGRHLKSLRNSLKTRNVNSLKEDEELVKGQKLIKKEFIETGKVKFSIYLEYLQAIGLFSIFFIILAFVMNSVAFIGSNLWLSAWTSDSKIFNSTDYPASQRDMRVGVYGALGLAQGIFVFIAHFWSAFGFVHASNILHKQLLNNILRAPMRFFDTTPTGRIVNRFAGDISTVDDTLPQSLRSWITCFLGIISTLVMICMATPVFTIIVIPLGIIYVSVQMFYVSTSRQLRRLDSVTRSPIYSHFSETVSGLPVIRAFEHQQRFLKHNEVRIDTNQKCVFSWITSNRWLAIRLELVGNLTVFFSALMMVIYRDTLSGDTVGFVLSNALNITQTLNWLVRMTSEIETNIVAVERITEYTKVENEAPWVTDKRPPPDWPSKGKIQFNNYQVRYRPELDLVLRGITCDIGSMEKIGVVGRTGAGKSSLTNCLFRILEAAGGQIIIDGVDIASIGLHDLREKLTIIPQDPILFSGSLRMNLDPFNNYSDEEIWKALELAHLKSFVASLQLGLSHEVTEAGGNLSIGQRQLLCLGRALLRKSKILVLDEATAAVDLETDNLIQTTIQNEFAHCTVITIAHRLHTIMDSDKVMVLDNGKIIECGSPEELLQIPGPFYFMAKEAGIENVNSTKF
UniProt O94956, sequence (whole entry, looked up): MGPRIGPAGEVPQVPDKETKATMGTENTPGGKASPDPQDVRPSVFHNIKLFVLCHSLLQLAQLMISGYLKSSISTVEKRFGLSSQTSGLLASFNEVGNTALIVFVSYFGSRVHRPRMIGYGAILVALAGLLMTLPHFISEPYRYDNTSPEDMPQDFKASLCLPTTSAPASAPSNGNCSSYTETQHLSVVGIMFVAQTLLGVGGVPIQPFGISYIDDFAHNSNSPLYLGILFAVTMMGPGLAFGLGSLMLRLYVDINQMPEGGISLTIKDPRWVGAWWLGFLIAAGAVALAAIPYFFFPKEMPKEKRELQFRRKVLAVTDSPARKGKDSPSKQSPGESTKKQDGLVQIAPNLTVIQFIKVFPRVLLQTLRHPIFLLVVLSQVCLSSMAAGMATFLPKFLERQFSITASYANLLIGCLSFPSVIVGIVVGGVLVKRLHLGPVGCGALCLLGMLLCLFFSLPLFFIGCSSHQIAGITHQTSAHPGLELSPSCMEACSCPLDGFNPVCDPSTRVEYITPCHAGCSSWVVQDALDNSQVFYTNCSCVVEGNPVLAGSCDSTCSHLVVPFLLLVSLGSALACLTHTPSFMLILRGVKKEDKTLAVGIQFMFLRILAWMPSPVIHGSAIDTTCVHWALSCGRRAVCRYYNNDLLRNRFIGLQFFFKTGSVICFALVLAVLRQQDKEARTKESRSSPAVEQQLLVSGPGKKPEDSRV
UniProt Q9Y6L6, sequence (whole entry, looked up): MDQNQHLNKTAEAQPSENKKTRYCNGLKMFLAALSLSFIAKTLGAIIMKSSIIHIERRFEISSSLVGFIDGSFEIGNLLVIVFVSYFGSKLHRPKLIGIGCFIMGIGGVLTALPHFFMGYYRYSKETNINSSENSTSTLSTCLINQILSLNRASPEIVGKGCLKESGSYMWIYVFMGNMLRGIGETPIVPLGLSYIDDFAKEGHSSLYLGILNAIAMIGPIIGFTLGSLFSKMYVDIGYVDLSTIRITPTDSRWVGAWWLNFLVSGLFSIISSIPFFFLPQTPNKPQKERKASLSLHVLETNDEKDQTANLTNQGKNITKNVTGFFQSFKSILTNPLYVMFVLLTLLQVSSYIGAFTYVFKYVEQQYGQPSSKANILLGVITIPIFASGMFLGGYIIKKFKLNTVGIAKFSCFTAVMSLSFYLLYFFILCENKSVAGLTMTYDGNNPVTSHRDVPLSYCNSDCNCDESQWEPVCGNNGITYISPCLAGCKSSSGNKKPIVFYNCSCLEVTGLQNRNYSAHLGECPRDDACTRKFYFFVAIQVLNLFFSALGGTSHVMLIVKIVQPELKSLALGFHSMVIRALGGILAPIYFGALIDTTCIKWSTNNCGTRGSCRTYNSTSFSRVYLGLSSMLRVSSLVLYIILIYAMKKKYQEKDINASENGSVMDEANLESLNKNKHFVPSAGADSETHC

`CC(C)C[C@H](NC(=O)[C@@H](CCCCNC(=O)[C@@H](Cc1ccccc1)NC(=O)CCCCCNC(=O)CN1CCN(CC(=O)O)CCN(CC(=O)O)CCN(CC(=O)O)CC1)NC(=O)[C@H](Cc1ccc(O)cc1)NC(=O)[C@H](CO)NC(=O)[C@H](Cc1c[nH]c2ccccc12)NC(=O)[C@H](Cc1c[nH]cn1)NC(=O)[C@@H]1CCC(=O)N1)C(=O)N[C@@H](CCCNC(=N)N)C(=O)N1CCC[C@H]1C(=O)NCC(N)=O` [indium-111 labelled] has a tissue uptake of 0.97 ± 0.45 %ID/g (female athymic nude mice, stomach; intravenous, 0.037 MBq, 1 h).
With `ABCC2 (Homo sapiens, UniProt Q92887)` the Vmax was 0.00239 µmol/min/mg (O=C(c1ccc(OCCN2CCCCC2)cc1)c1c(-c2ccc(O[C@@H]3O[C@H](C(=O)O)[C@@H](O)[C@H](O)[C@H]3O)cc2)sc2cc(O)ccc12; steady-state kinetics; Sf9 vesicles; pH 7, 37 °C, not purified, added: ATP).
The logD of `N#C[C@@H]1CC(F)(F)CN1C(=O)CNC(=O)c1ccnc2ccc(OCCCN3CCN(C(=S)Nc4ccc(C[C@H]5CN(CC(N)=O)CCN(CC(N)=O)CCN(CC(N)=O)CCN5CC(N)=O)cc4)CC3)cc12` is reported as -2.42 ± 0.17 (shake flask; n-octanol/PBS; pH 7.4, 203Pb-labelled).
`C[C@@H](O)[C@@H]1NC(=O)[C@H](CCCCN)NC(=O)[C@@H](Cc2c[nH]c3ccccc23)NC(=O)[C@H](Cc2ccc(O)cc2)NC(=O)[C@@H](NC(=O)[C@@H](Cc2ccccc2)NC(=O)CN2CCN(CC(=O)O)CCN(CC(=O)O)CCN(CC(=O)O)CC2)CSSC[C@@H](C(=O)N[C@H](CO)[C@@H](C)O)NC1=O` [gallium-67 labelled] gave a tissue uptake of 8.12 ± 1.4 %ID/g (gamma counting; ICR mice, male, pancreas; iv, 11 kBq/mouse, 1 h).
`CC(C)C[C@H](NC(=O)[C@H](Cc1ccc(O)cc1)NC(=O)[C@@H](CCCNC(=N)N)NC(=O)[C@@H](CO)NC(=O)[C@H](Cc1ccccc1)NC(=O)[C@H](CC1CCCCC1)NC(=O)[C@H](CC(=O)O)NC(=O)CN1CCN(CC(=O)O)CCN(CC(=O)O)CCN(CC(=O)O)CC1)C(=O)N[C@@H](Cc1c[nH]c2ccccc12)C(=O)N[C@@H](CO)C(=O)O` [copper-64 labelled] gave an activity concentration of 6460 Bq/mL and 10900 Bq/mL and 8020 Bq/mL and 8290 Bq/mL and 12000 Bq/mL and 13600 Bq/mL (human, liver; concentration not given, 1 h).
With `SLCO1B1 (Homo sapiens, UniProt Q9Y6L6)` the Vmax was 3.58e-05 µmol/min/mg (O=C(c1ccc(OCCN2CCCCC2)cc1)c1c(-c2ccc(O[C@@H]3O[C@H](C(=O)O)[C@@H](O)[C@H](O)[C@H]3O)cc2)sc2cc(O)ccc12; steady-state kinetics; HEK293 cells; pH 7.4, 37 °C).
The Vmax of `B1 (UGT1A4)` is reported as 9e-05 µmol/min/mg (CCCCN1C(=O)c2cccc3c(N4CCN(C)CC4)ccc(c23)C1=O; steady-state kinetics; Michaelis-Menten, UGT1A4).
`CCCC[C@H](NC(=O)COCCOCCNC(=O)CN1CCN(CC(=O)O)CCN(CC(=O)O)CC1)C(=O)N[C@H]1CC(=O)NCCCC[C@@H](C(N)=O)NC(=O)[C@H](Cc2c[nH]c3ccccc23)NC(=O)[C@H](CCCNC(=N)N)NC(=O)[C@@H](Cc2ccccc2)NC(=O)[C@H](Cc2c[nH]cn2)NC1=O` [technetium-99m labelled] gave a tissue uptake of 0.73 ± 0.55 %ID/g (C57 mouse, bone; intravenous, 0.037 MBq, 0.5 h).
`ABCC3 (Homo sapiens, UniProt O15438)` has a Vmax of 0.000278 µmol/min/mg (O=C(c1ccc(OCCN2CCCCC2)cc1)c1c(-c2ccc(O[C@@H]3O[C@H](C(=O)O)[C@@H](O)[C@H](O)[C@H]3O)cc2)sc2cc(O[C@@H]3O[C@H](C(=O)O)[C@@H](O)[C@H](O)[C@H]3O)ccc12; steady-state kinetics; Sf9 vesicles; pH 7, 37 °C, not purified, added: ATP).
`CCCC[C@H](NC(=O)CCCCCCCNC(=O)CN1CCN(CC(=O)O)CCN(CC(=O)O)CC1)C(=O)N[C@H]1CC(=O)NCCCC[C@@H](C(N)=O)NC(=O)[C@H](Cc2c[nH]c3ccccc23)NC(=O)[C@H](CCCNC(=N)N)NC(=O)[C@@H](Cc2ccccc2)NC(=O)[C@H](Cc2c[nH]cn2)NC1=O` [technetium-99m labelled] gave a tissue uptake of 21.2 ± 2.7 %ID (C57 mouse, intestine; intravenous, 0.037 MBq, 0.5 h).
For `SLCO2B1 (Homo sapiens, UniProt O94956)`, the Vmax was 0.00014 µmol/min/mg (O=C(c1ccc(OCCN2CCCCC2)cc1)c1c(-c2ccc(O[C@@H]3O[C@H](C(=O)O)[C@@H](O)[C@H](O)[C@H]3O)cc2)sc2cc(O)ccc12; steady-state kinetics; HEK293 cells; pH 7.4, 37 °C).
`N#C[C@@H]1CC(F)(F)CN1C(=O)CNC(=O)c1ccnc2ccc(OCCCN3CCN(C(=S)Nc4ccc(C[C@H]5CN(Cc6ccccn6)CCN(Cc6ccccn6)CCN(Cc6ccccn6)CCN5Cc5ccccn5)cc4)CC3)cc12` [lead-203 labelled] gave a logD of -0.76 ± 0.03 (shake flask; n-octanol/PBS; pH 7.4, 203Pb-labelled).

Repeated from above:
`CC(C)C[C@H](NC(=O)[C@@H](CCCCNC(=O)[C@@H](Cc1ccccc1)NC(=O)CCCCCNC(=O)CN1CCN(CC(=O)O)CCN(CC(=O)O)CCN(CC(=O)O)CC1)NC(=O)[C@H](Cc1ccc(O)cc1)NC(=O)[C@H](CO)NC(=O)[C@H](Cc1c[nH]c2ccccc12)NC(=O)[C@H](Cc1c[nH]cn1)NC(=O)[C@@H]1CCC(=O)N1)C(=O)N[C@@H](CCCNC(=N)N)C(=O)N1CCC[C@H]1C(=O)NCC(N)=O` [indium-111 labelled] has a tissue uptake of 0.97 ± 0.45 %ID/g (female athymic nude mice, stomach; intravenous, 0.037 MBq, 1 h).
